Results of several laboratories.
Compare with care: the assays were run in different laboratories.

Structure (SMILES)	assay	test system	conditions	scale	retention time [min]
NCC(=O)N[C@@H](CC(N)=O)C(=O)N[C@@H](CC(N)=O)C(=O)N[C@@H](CCC(N)=O)C(=O)N[C@@H](CCC(N)=O)C(=O)N[C@@H](CC(N)=O)C(=O)N[C@@H](Cc1ccc(O)cc1)C(=O)O	RP-HPLC C18				9.61
CCCC[C@H](NC(=O)[C@@H](NC(=O)[C@H](CCC(=O)O)NC(=O)CNC(=O)[C@@H](NC(=O)[C@H](Cc1ccccc1)NC(=O)[C@H](C)NC(=O)[C@H](CCCCN)NC(=O)CNC(=O)[C@H](Cc1ccccc1)NC(=O)[C@H](CCCCN)NC(=O)[C@H](CCCCN)NC(=O)[C@H](C)NC(=O)[C@H](CO)NC(=O)[C@]1(C)CCCC=CCCC[C@](C)(NC(=O)[C@@H](NC(=O)CN)[C@@H](C)CC)C(=O)N[C@@H](CCCCN)C(=O)N[C@@H](Cc2ccccc2)C(=O)N[C@@H](CC(C)C)C(=O)N1)C(C)C)[C@@H](C)CC)C(=O)N[C@@H](CC(N)=O)C(=O)N[C@@H](CO)C(N)=O	HPLC C18 column				13.5
CC(C)C[C@H](N)C(=O)N[C@@H](CC(N)=O)C(=O)N[C@@H](CCC(N)=O)C(=O)N[C@@H](CCC(N)=O)C(=O)N[C@@H](CC(N)=O)C(=O)N[C@@H](Cc1ccc(O)cc1)C(=O)O	RP-HPLC C18				11.4
CCCC[C@H](NC(=O)[C@@H](NC(=O)[C@H](CCC(=O)O)NC(=O)CNC(=O)[C@@H](NC(=O)[C@H](Cc1ccccc1)NC(=O)[C@H](C)NC(=O)[C@H](CCCCN)NC(=O)CNC(=O)[C@H](Cc1ccccc1)NC(=O)[C@H](CCCCN)NC(=O)[C@]1(C)CCCC=CCCC[C@](C)(NC(=O)[C@H](Cc2ccccc2)NC(=O)[C@H](CCCCN)NC(=O)CNC(=O)[C@@H](NC(=O)CN)[C@@H](C)CC)C(=O)N[C@@H](Cc2c[nH]cn2)C(=O)N[C@@H](CO)C(=O)N[C@@H](C)C(=O)N1)C(C)C)[C@@H](C)CC)C(=O)N[C@@H](CC(N)=O)C(=O)N[C@@H](CO)C(N)=O	HPLC C18 column				15.7
CC[C@H](C)[C@H](NC(=O)[C@H](CC(N)=O)NC(=O)[C@@H](N)CC(N)=O)C(=O)N[C@@H](CCC(N)=O)C(=O)N[C@@H](Cc1c[nH]c2ccccc12)C(=O)N[C@@H](CC(C)C)C(=O)O	RP-HPLC C18				16.6
CC[C@H](C)[C@@H]1NC(=O)[C@@](C)(N)CCCC=CCCC[C@@](C)(C(=O)N[C@@H](CC(C)C)C(=O)N[C@@H](CCCCN)C(=O)N[C@@H](CO)C(=O)N[C@@H](C)C(=O)N[C@@H](CCCCN)C(=O)N[C@@H](CCCCN)C(=O)N[C@@H](Cc2ccccc2)C(=O)N[C@H](C(=O)N[C@@H](CCCCN)C(=O)N[C@@H](C)C(=O)N[C@@H](Cc2ccccc2)C(=O)N[C@@H](CCCCN)C(N)=O)C(C)C)NC(=O)[C@H](CCCCN)NC(=O)[C@H](CCCCN)NC1=O	UPLC	TFA water/acetonitrile gradient		longer = more hydrophobic	2.08
CCCC[C@@H]1NC(=O)[C@H]([C@@H](C)CC)NC(=O)[C@H](CCC(=O)O)NC(=O)[C@@](C)(NC(=O)[C@@H](NC(=O)[C@H](Cc2ccccc2)NC(=O)[C@H](C)NC(=O)[C@H](CCCCN)NC(=O)CNC(=O)[C@H](Cc2ccccc2)NC(=O)[C@H](CCCCN)NC(=O)[C@H](CCCCN)NC(=O)[C@H](C)NC(=O)[C@H](CO)NC(=O)[C@H](Cc2c[nH]cn2)NC(=O)[C@H](CC(C)C)NC(=O)[C@H](Cc2ccccc2)NC(=O)[C@H](CCCCN)NC(=O)CNC(=O)[C@@H](NC(=O)CN)[C@@H](C)CC)C(C)C)CCCC=CCCC[C@@](C)(C(=O)N[C@@H](CO)C(N)=O)NC1=O	HPLC C18 column				12.7
CC[C@H](C)[C@@H]1NC(=O)[C@](C)(N)CCCCCCC=CCCC[C@@](C)(C(=O)N[C@@H](C)C(=O)N[C@@H](CCCCN)C(=O)N[C@@H](CCCCN)C(=O)N[C@@H](Cc2ccccc2)C(=O)N[C@H](C(=O)N[C@@H](CCCCN)C(=O)N[C@@H](C)C(=O)N[C@@H](Cc2ccccc2)C(=O)N[C@@H](CCCCN)C(N)=O)C(C)C)NC(=O)[C@H](CCCCN)NC(=O)[C@H](CC(C)C)NC(=O)[C@H](Cc2ccccc2)NC(=O)[C@H](CCCCN)NC(=O)[C@H](CCCCN)NC1=O	UPLC	TFA water/acetonitrile gradient		longer = more hydrophobic	2.57
CC(C)C[C@H](NC(=O)CNC(=O)[C@H](CCCNC(=N)N)NC(=O)[C@@H](N)CC(=O)O)C(=O)N[C@@H](Cc1ccccc1)C(=O)N[C@@H](CC(=O)O)C(=O)N[C@@H](Cc1ccccc1)C(=O)N[C@@H](CC(C)C)C(=O)NCC(=O)N[C@@H](CCCCN)C(=O)N[C@@H](CCCCN)C(=O)N[C@@H](CCCCN)C(N)=O	RP-HPLC		C18 column		15.1
CC[C@H](C)[C@H](NC(=O)CN)C(=O)N[C@@H](CCCCN)C(=O)N[C@@H](CCCCN)C(=O)N[C@@]1(C)CCCC=CCCC[C@@](C)(C(=O)N[C@@H](CCCCN)C(=O)N[C@@H](CCCCN)C(=O)N[C@@H](Cc2ccccc2)C(=O)N[C@H](C(=O)N[C@@H](CCCCN)C(=O)N[C@@H](C)C(=O)N[C@@H](Cc2ccccc2)C(=O)N[C@@H](CCCCN)C(N)=O)C(C)C)NC(=O)[C@H](CO)NC(=O)[C@H](CCCCN)NC(=O)[C@H](CC(C)C)NC1=O	UPLC	TFA water/acetonitrile gradient		longer = more hydrophobic	2.31
CCCC(=O)N[C@@H](CCCCN)C(=O)N[C@@H](CCCCN)C(=O)N[C@@H](C)C(=O)N[C@@H](CC(C)C)C(=O)N[C@@H](CCCCN)C(=O)N[C@@H](CC(C)C)C(=O)N[C@@H](C)C(=O)N[C@@H](CCCCN)C(=O)N[C@@H](CCCCN)C(=O)N1CCC[C@H]1C(=O)N[C@@H](CC(C)C)C(=O)N[C@@H](CCCCN)C(=O)N[C@@H](CC(C)C)C(=O)N[C@@H](CC(C)C)C(=O)N[C@@H](CCCCN)C(N)=O	reversed-phase HPLC (C18)		water/acetonitrile TFA gradient		16.1
CC[C@H](C)[C@H](NC(=O)CN)C(=O)N[C@@H](CCCCN)C(=O)N[C@@H](CCCCN)C(=O)N[C@]1(C)CCCCCCC=CCCC[C@@](C)(C(=O)N[C@H](C(=O)N[C@@H](CCCCN)C(=O)N[C@@H](C)C(=O)N[C@@H](Cc2ccccc2)C(=O)N[C@@H](CCCCN)C(N)=O)C(C)C)NC(=O)[C@H](CCCCN)NC(=O)[C@H](CCCCN)NC(=O)[C@H](C)NC(=O)[C@H](CO)NC(=O)[C@H](CCCCN)NC(=O)[C@H](CC(C)C)NC1=O	UPLC	TFA water/acetonitrile gradient		longer = more hydrophobic	2.41
CCCC[C@H](NC(=O)[C@@H](NC(=O)[C@H](CCC(=O)O)NC(=O)CNC(=O)[C@@H](NC(=O)[C@H](Cc1ccccc1)NC(=O)[C@H](C)NC(=O)[C@H](CCCCN)NC(=O)CNC(=O)[C@H](Cc1ccccc1)NC(=O)[C@H](CCCCN)NC(=O)[C@H](CCCCN)NC(=O)[C@H](C)NC(=O)[C@H](CO)NC(=O)[C@H](Cc1c[nH]cn1)NC(=O)[C@H](CC(C)C)NC(=O)[C@]1(C)CCCC=CCCC[C@](C)(N)C(=O)N[C@@H]([C@@H](C)CC)C(=O)NCC(=O)N[C@@H](CCCCN)C(=O)N1)C(C)C)[C@@H](C)CC)C(=O)N[C@@H](CC(N)=O)C(=O)N[C@@H](CO)C(N)=O	HPLC C18 column				12.1
NC(=O)CC[C@H](NC(=O)[C@H](CCC(N)=O)NC(=O)[C@H](CC(N)=O)NC(=O)[C@@H](N)CC(N)=O)C(=O)N[C@@H](CC(N)=O)C(=O)N[C@@H](Cc1ccc(O)cc1)C(=O)O	RP-HPLC C18				9.83
CC[C@H](C)[C@H](NC(=O)CN)C(=O)N[C@@H](CCCCN)C(=O)N[C@@H](CCCCN)C(=O)N[C@@H](Cc1ccccc1)C(=O)N[C@@H](CC(C)C)C(=O)N[C@@H](CCCCN)C(=O)N[C@@]1(C)CCCC=CCCC[C@@](C)(C(=O)N[C@H](C(=O)N[C@@H](CCCCN)C(=O)N[C@@H](C)C(=O)N[C@@H](Cc2ccccc2)C(=O)N[C@@H](CCCCN)C(N)=O)C(C)C)NC(=O)[C@H](CCCCN)NC(=O)[C@H](CCCCN)NC(=O)[C@H](C)NC1=O	UPLC	TFA water/acetonitrile gradient		longer = more hydrophobic	2.34

Repeated from above:
Structure (SMILES)	assay	test system	conditions	scale	retention time [min]
CC[C@H](C)[C@H](NC(=O)CN)C(=O)N[C@@H](CCCCN)C(=O)N[C@@H](CCCCN)C(=O)N[C@@H](Cc1ccccc1)C(=O)N[C@@H](CC(C)C)C(=O)N[C@@H](CCCCN)C(=O)N[C@@]1(C)CCCC=CCCC[C@@](C)(C(=O)N[C@H](C(=O)N[C@@H](CCCCN)C(=O)N[C@@H](C)C(=O)N[C@@H](Cc2ccccc2)C(=O)N[C@@H](CCCCN)C(N)=O)C(C)C)NC(=O)[C@H](CCCCN)NC(=O)[C@H](CCCCN)NC(=O)[C@H](C)NC1=O	UPLC	TFA water/acetonitrile gradient		longer = more hydrophobic	2.34
